Experimental data gathered from unrelated publications.
Protocols differ between the studies behind these lines. Numbers after ± are the reported error.

Structure (SMILES)	test system	conditions	tissue uptake
CCCC[C@H](NC(=O)CNC(=O)CNC(=O)CN1CCN(CC(=O)O)CCN(CC(=O)O)CCN(CC(=O)O)CC1)C(=O)N[C@H]1CC(=O)NCCCC[C@@H](C(N)=O)NC(=O)[C@H](Cc2c[nH]c3ccccc23)NC(=O)[C@H](CCCNC(=N)N)NC(=O)[C@@H](Cc2ccccc2)NC(=O)[C@H](Cc2c[nH]cn2)NC1=O [copper-64 labelled]	female C57 mouse, B16/F1 melanoma, kidneys	intravenous, 0.037 MBq, 2 h	9.3 ± 2.81 %ID/g
O=C([O-])CN1CCN(CC(=O)[O-])CCN(CC(=O)NCCc2ccc3c(c2)C2C=CCC2C(c2cc4c(cc2Br)OCO4)N3)CCN(CC(=O)[O-])CC1.[111In+3] (centres unmarked)	mouse, Hec50 endometrial tumour, stomach	1 h post injection	5.05 ± 1.75 %ID/g
CN1C(=O)[C@@H](Cc2ccc(O)c(I)c2)NC(=O)CNC(=O)[C@H](Cc2ccc3ccccc3c2)NC(=O)[C@H](CCCNC(=N)N)NC(=O)[C@H]1CCCNC(=O)c1ccc(CNC(=O)CN2CCN(CC(=O)O)CCN(CC(=O)O)CCN(CC(=O)O)CC2)cc1 [lutetium-177 labelled]	female CB-17 SCID mouse, Daudi xenograft, pancreas	intravenous, 6 h, CXCR4 blocking, with: AMD3100 2 mg/kg coinjected	0.1 ± 0.002 %ID/g
CCCC[C@H](NC(=O)CNC(=O)CNC(=O)CN1CCN(CC(=O)O)CCN(CC(=O)O)CCN(CC(=O)O)CC1)C(=O)N[C@H]1CC(=O)NCCCC[C@@H](C(N)=O)NC(=O)[C@H](Cc2c[nH]c3ccccc23)NC(=O)[C@H](CCCNC(=N)N)NC(=O)[C@@H](Cc2ccccc2)NC(=O)[C@H](Cc2c[nH]cn2)NC1=O [lead-203 labelled]	C57 mouse, skin	intravenous, 0.056 MBq, 2 h	0.27 ± 0.1 %ID/g
CC(C)[C@H](NC(=O)[C@@H]1CCCN1C(=O)[C@H](CCCNC(=N)N)NC(=O)[C@H](CS)NC(=O)[C@H](Cc1c[nH]c2ccccc12)NC(=O)[C@H](CCCNC(=N)N)NC(=O)[C@@H](Cc1ccccc1)NC(=O)[C@H](Cc1c[nH]cn1)NC(=O)[C@H](CCC(=O)O)NC(=O)[C@H](CS)NC(=O)[C@H](CS)NC(=O)CNC(=O)[C@@H]1CC(=O)N[C@@H](CCCNC(=N)N)C(=O)NCC(=O)N[C@@H](CC(=O)O)C(=O)N[C@H](Cc2ccc(O)cc2)C(=O)N1)C(N)=O [technetium-99m labelled]	C57 mouse, female, B16/F1 melanoma, muscle	intravenous, 0.037 MBq, 4 h	0.11 ± 0.09 %ID/g
CN(C)c1ccc(-c2nc3ccc(OCCCCCN4CCN5CCN(CC4)CC(=O)[O][Al]([18F])[O]C(=O)C5)cc3s2)cc1	ICR mouse, pancreas	intravenous, 2 min	4.96 ± 0.38 %ID/g
CCCC[C@H](NC(=O)CNC(=O)CNC(=O)CN1CCN(CC(=O)O)CCN(CC(=O)O)CC1)C(=O)N[C@H]1CC(=O)NCCCC[C@@H](C(N)=O)NC(=O)[C@H](Cc2c[nH]c3ccccc23)NC(=O)[C@H](CCCNC(=N)N)NC(=O)[C@@H](Cc2ccccc2)NC(=O)[C@H](Cc2c[nH]cn2)NC1=O [copper-64 labelled]	female C57 mouse, B16/F1 melanoma, heart	intravenous, 0.037 MBq, 2 h	0.24 ± 0.13 %ID/g
CC(C)[C@H](NC(=O)[C@@H]1CCCN1C(=O)[C@H](CCCNC(=N)N)NC(=O)[C@H](CS)NC(=O)[C@H](Cc1c[nH]c2ccccc12)NC(=O)[C@H](CCCNC(=N)N)NC(=O)[C@@H](Cc1ccccc1)NC(=O)[C@H](Cc1c[nH]cn1)NC(=O)[C@H](CCC(=O)O)NC(=O)[C@H](CS)NC(=O)[C@H](CS)NC(=O)[C@@H]1CC(=O)N[C@@H](CCCNC(=N)N)C(=O)NCC(=O)N[C@@H](CC(=O)O)C(=O)N[C@H](Cc2ccc(O)cc2)C(=O)N1)C(N)=O [technetium-99m labelled]	C57 mouse, female, B16/F1 melanoma, stomach	intravenous, 0.037 MBq, 2 h	1.52 ± 0.24 %ID/g

For quick reference, copied from above:
Structure (SMILES)	test system	conditions	tissue uptake
CCCC[C@H](NC(=O)CNC(=O)CNC(=O)CN1CCN(CC(=O)O)CCN(CC(=O)O)CCN(CC(=O)O)CC1)C(=O)N[C@H]1CC(=O)NCCCC[C@@H](C(N)=O)NC(=O)[C@H](Cc2c[nH]c3ccccc23)NC(=O)[C@H](CCCNC(=N)N)NC(=O)[C@@H](Cc2ccccc2)NC(=O)[C@H](Cc2c[nH]cn2)NC1=O [lead-203 labelled]	C57 mouse, skin	intravenous, 0.056 MBq, 2 h	0.27 ± 0.1 %ID/g
